Measurements from different studies.
Protocols differ between the studies behind these lines. Numbers after ± are the reported error.
PIM1: Serine/threonine-protein kinase pim-1 (PIM1, Homo sapiens, UniProt P11309)
Chain of UniProt P11309 (whole entry, looked up): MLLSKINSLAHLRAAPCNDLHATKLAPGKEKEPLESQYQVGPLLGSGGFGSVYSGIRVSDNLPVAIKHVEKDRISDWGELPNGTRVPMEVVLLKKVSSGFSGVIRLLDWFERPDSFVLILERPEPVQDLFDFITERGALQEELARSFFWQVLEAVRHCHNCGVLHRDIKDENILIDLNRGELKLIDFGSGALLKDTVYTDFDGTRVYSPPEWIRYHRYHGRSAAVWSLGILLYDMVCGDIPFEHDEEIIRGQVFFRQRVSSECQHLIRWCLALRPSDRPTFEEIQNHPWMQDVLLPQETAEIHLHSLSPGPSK
IDO1: Indoleamine 2,3-dioxygenase 1 (IDO1, Homo sapiens, UniProt P14902)
Chain of UniProt P14902 (whole entry, looked up): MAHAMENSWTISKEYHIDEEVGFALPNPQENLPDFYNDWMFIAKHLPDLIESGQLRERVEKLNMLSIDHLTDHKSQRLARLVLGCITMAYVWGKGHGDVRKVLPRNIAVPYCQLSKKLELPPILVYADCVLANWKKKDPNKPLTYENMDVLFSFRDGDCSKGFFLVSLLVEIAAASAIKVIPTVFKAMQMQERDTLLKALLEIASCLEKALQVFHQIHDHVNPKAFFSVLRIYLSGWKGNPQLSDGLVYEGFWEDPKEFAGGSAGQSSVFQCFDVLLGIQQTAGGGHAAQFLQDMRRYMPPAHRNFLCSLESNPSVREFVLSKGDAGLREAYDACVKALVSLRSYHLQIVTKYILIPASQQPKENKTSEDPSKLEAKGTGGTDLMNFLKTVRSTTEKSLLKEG
Gria2/Glutamate receptor 3: Gria2/Glutamate receptor 3 (Rattus norvegicus, UniProt P19491+P19492)
Chain of UniProt P19492 (whole entry, looked up): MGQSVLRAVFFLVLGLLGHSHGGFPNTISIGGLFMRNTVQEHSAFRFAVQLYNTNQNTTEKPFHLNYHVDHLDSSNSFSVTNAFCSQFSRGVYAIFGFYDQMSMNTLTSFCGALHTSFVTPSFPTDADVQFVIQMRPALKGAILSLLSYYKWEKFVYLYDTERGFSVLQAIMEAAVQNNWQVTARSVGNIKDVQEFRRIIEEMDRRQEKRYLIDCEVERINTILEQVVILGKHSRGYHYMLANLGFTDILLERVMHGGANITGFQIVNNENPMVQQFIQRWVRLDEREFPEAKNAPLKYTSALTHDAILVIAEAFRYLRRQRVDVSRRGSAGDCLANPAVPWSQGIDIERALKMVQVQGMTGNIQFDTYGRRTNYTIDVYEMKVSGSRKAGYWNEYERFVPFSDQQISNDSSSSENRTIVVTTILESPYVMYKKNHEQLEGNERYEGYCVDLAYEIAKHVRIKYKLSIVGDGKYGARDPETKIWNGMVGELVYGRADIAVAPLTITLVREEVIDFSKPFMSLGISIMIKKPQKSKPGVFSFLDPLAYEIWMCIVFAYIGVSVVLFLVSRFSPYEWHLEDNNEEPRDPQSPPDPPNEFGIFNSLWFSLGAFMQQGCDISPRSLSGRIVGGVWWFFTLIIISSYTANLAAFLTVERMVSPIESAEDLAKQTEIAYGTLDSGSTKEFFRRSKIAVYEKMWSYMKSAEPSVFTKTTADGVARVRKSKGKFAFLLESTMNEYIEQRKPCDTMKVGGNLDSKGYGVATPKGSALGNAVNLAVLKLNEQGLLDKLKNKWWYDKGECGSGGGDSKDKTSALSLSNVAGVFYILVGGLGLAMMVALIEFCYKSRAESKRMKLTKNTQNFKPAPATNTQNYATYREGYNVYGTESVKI
Chain of UniProt P19491 (whole entry, looked up): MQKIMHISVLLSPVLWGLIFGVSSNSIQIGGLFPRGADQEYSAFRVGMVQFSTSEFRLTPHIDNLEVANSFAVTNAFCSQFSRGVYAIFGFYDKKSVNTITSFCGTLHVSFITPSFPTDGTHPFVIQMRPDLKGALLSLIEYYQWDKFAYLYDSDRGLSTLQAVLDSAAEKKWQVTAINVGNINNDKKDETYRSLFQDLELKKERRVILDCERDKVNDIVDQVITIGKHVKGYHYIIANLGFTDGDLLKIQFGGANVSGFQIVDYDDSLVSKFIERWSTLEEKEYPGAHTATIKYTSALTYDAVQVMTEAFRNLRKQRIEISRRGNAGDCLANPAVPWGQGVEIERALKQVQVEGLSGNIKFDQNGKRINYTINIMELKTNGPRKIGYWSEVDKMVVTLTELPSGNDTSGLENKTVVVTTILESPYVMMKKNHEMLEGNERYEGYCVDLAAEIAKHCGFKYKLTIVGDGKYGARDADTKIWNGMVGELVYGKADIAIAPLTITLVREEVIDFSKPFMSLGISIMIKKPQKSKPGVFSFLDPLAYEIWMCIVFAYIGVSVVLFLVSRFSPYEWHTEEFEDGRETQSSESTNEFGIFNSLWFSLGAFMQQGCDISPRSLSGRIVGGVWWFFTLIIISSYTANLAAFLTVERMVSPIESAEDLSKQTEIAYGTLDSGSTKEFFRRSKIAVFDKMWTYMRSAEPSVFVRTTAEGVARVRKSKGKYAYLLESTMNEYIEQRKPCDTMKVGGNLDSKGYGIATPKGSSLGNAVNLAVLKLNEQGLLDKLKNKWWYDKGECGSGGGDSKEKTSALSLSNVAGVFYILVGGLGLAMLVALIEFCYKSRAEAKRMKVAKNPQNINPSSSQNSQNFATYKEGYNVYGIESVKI
CSNK1A1: Casein kinase I isoform alpha (CSNK1A1, Homo sapiens, UniProt P48729)
Chain of UniProt P48729 (whole entry, looked up): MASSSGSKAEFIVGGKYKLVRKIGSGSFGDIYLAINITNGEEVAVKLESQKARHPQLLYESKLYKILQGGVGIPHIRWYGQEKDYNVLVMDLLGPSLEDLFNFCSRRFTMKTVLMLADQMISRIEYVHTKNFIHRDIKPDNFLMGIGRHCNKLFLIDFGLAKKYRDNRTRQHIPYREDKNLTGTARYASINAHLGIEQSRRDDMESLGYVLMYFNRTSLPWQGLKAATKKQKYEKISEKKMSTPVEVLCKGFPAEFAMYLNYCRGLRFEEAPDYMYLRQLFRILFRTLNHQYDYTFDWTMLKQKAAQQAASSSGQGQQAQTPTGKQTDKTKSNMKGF
SETD7: Histone-lysine N-methyltransferase SETD7 (SETD7, Homo sapiens, UniProt Q8WTS6)
Chain of UniProt Q8WTS6 (whole entry, looked up): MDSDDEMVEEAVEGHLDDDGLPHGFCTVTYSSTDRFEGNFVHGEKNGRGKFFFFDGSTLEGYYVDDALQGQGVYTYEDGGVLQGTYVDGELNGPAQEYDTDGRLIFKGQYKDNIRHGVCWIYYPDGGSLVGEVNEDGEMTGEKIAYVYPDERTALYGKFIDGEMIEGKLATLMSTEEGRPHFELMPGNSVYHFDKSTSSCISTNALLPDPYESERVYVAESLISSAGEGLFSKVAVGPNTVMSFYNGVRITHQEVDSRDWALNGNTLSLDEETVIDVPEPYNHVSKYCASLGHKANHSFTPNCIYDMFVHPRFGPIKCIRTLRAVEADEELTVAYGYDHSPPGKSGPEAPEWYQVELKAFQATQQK
HDAC7: Histone deacetylase 7 (HDAC7, Homo sapiens, UniProt Q8WUI4)
Chain of UniProt Q8WUI4 (whole entry, looked up): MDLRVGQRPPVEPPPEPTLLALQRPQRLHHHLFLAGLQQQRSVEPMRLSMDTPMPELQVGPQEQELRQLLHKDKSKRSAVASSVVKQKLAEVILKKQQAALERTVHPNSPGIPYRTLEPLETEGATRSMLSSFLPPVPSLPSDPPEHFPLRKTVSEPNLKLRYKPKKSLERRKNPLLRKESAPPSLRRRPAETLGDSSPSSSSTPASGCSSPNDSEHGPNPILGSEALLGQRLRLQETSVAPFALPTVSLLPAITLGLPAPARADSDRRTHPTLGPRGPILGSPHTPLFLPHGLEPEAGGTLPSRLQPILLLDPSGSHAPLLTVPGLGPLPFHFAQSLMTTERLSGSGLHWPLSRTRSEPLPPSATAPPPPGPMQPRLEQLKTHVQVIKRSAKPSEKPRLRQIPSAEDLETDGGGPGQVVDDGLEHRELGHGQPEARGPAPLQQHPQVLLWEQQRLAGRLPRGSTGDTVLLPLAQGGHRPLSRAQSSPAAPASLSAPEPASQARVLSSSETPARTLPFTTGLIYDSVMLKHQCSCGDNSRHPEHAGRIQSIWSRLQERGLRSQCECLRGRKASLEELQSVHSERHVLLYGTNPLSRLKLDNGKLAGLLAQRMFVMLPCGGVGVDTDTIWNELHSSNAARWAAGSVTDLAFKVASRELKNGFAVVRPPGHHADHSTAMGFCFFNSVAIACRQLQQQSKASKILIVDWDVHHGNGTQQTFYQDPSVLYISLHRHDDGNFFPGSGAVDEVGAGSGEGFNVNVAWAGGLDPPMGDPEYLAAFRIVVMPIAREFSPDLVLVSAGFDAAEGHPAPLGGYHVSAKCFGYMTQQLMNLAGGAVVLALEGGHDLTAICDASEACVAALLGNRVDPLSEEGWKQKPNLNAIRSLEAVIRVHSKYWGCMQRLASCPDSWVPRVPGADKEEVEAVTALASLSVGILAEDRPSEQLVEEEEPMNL
Chain of UniProt P93836 (whole entry, looked up): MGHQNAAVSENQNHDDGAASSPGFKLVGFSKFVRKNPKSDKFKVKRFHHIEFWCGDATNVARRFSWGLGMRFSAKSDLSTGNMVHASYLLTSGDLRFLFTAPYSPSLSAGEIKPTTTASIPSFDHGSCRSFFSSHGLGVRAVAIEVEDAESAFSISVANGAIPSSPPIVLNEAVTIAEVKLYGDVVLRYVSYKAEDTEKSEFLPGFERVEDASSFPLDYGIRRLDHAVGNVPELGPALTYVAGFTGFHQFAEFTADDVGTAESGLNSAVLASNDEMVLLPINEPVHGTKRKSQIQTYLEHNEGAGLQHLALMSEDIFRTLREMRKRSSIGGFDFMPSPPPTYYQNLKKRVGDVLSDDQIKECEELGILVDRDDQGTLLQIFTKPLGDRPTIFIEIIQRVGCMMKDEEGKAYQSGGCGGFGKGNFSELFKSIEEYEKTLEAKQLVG
Chain of UniProt P20618 (whole entry, looked up): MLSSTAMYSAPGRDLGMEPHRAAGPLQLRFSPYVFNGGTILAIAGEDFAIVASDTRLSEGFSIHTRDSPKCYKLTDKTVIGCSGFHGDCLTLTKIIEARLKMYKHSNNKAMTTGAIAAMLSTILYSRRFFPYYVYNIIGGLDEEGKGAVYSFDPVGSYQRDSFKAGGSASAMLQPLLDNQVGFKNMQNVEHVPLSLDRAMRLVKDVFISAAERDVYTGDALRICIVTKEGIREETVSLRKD

CC(C)(C)NC(=O)CC(NC(=O)CCc1ccccc1)C(=O)NCCNC(=O)c1cccc(-c2ccccc2)c1 (stereo not drawn)  IC50 (Proteasome component C5/PSMB8 (Homo sapiens, UniProt P20618+P28062); enzyme activity, inhibitor; immunoproteasome β5i): 0.058 µM
COC1CN([C@H]2CC[C@H]([C@@]3(C)Oc4c(Cl)cc(C(=O)NCc5c(SC)cc(C)[nH]c5=O)c(C)c4O3)CC2)C1  log2 fold change (RNA-seq, measured: ARHGEF17; human, whole blood; dose not given, 24 h; baseline: pretreatment baseline): 2.04
Fc1cncc(-c2ccc3[nH]c4ncnc(N[C@H]5CC[C@H](N6CCOCC6)CC5)c4c3c2)c1  IC50 (PIM1; enzyme activity, inhibitor, radiometric): 0.012 µM
Cc1oc(C)c(-c2ccc(N(CC(C)C)CC(C)C)c(NC(=O)Nc3ccc(B(O)O)cc3)c2)c1C(=O)O  IC50 (IDO1; enzyme activity, inhibitor, recombinant enzyme, measured: kynurenine; 20 min, 2% DMSO, added: L-tryptophan): 53 ± 6 µM
COc1cc(CCC(=O)c2ccc(O)c(O)c2)ccc1O  IC50 (mushroom tyrosinase; enzyme activity, inhibitor; 10 min, added: L-tyrosine): 29 µg/mL
COc1cc(C[C@H]2C(=O)OC[C@@H]2Cc2ccc(OC)c(OC)c2)ccc1O  IC50 (CES1 (Homo sapiens, UniProt P23141); enzyme activity, inhibitor): 6.5 µM
O=C(O)Cc1cc2c(cc1C(=O)c1ccccc1Cl)OCO2  IC50 (Gria2/Glutamate receptor 3; ion current, antagonist, patch clamp): 4.47 µM
O=C(CCNC(=O)CNC(=O)CC(c1ccccc1)(c1ccccc1)c1ccccc1)NC[C@@H]1CCCN(C(=O)c2ccc(F)cc2)C1  IC50 (CHRM1 (Homo sapiens, UniProt P11229); ligand displacement, radioligand; cell membranes): > 30 µM
C#CCCn1nc(C)c2c(Cl)c(C(=O)NCC3CC(Br)=NO3)cnc21 (stereo not drawn)  IC50 (MDH2 (Sus scrofa, UniProt P00346); enzyme activity, reporter counter-screen; native enzyme): > 63 µM
Cc1nn(-c2cccc(N)c2)c(=O)c2cnc(Nc3ccc(N4CCNCC4)cc3)nc12  IC50 (CSNK1A1; enzyme activity, inhibitor): > 10 µM
C=CC(=O)N1C[C@H](C)N(c2nc(OC[C@@]34CCCN3C[C@H](F)C4)nc3c(F)c(-c4ccc(F)c5sc(N)c(C#N)c45)c(C(F)(F)F)cc23)C[C@H]1C  IC50 (GTPase KRas, GppNHp; with RAF1 RBD (KRAS, Homo sapiens, UniProt P01116, G12V)): 6.8 ± 1.3 µM
CO[C@@H]1[C@@H](OC(=O)c2ccc(C)[nH]2)[C@@H](O)[C@H](Oc2ccc3c(O)c(NC(=O)c4c[nH]c(C(=O)Nc5c(O)c6ccc(O[C@@H]7OC(C)(C)[C@H](OC)[C@@H](OC(=O)c8ccc(C)[nH]8)[C@H]7O)c(C)c6oc5=O)c4C)c(=O)oc3c2C)OC1(C)C  IC50 (Replication protein E1, helicase domain (E1, Human papillomavirus type 16, UniProt P03114); fork unwinding, inhibitor): ~170 µM
COc1cccc(CNc2nc(NC3CCN(Cc4ccccc4C(=O)O)CC3)c3nc[nH]c3n2)c1  IC50 (IPMK (Homo sapiens, UniProt Q8NFU5); enzyme activity, inhibitor): 53 µM
C[C@@H]1CN(Cc2ccc(S(=O)(=O)n3cnc(C4CC4)n3)cc2)[C@@H](C)CN1c1cc(=O)n(C)c2ccc(C#N)nc12  IC50 (DGKZ (Homo sapiens, UniProt Q13574); inhibitor, ADP-Glo; added: DAG micelles): 3.16 µM
CCn1nc(Cl)c2c1-c1cnc(N)c(c1)O[C@H](C)c1cc(F)ccc1-c1nn(C)cc1C2  IC50 (CSF1R (Homo sapiens, UniProt P07333); enzyme activity, inhibitor, radiometric): 0.46 µM
Cc1cc(NC2CCN(C)CC2)ccc1-c1cc2c(N3CCC[C@H](C(=O)NCc4ccc(OC(F)(F)F)cc4)C3)ncnc2[nH]1  IC50 (PIM1; enzyme activity, inhibitor, mobility shift): 5.95 µM
C#CCCn1nc(C)c2c(Cl)c(C(=O)NCC3CC(C)=NO3)cnc21 (stereo not drawn)  IC50 (60 kDa heat shock protein, mitochondrial, with HSP10 (Homo sapiens, UniProt P10809); ATPase activity; 30 min, added: HSP10): > 250 µM
O=C(O)Cc1cc2c(cc1C(=O)c1cccc(Cl)c1)OCO2  IC50 (Gria2/Glutamate receptor 3; ion current, patch clamp): 4.28 µM
OC[C@H]1O[C@@H](Oc2cc3c(O)cc(O)cc3[o+]c2-c2cc(O)c(O)c(O)c2)[C@H](O)[C@@H](O)[C@H]1O  IC50 (PPO3 (Agaricus bisporus, UniProt C7FF04); enzyme activity, inhibitor, absorbance; pH 6.8): 45.1 µM
O=C1C(Cl)=C(NCCN2CCOCC2)C(=O)c2ncccc21  IC50 (SETD7; enzyme activity, inhibitor): > 100 µM
Cc1nc2c(F)cc(-c3nc(Nc4ccc(CNC(=O)CCCCCCC(=O)NO)cc4)ncc3F)cc2n1C(C)C  IC50 (HDAC7; enzyme activity, inhibitor): > 10 µM
O=C1Nc2c(Br)cccc2/C1=C1/Nc2ccccc2C1=NO  IC50 (PI4KB (Homo sapiens, UniProt Q9UBF8)): > 9.1 µM
CN1CCN(S(=O)(=O)c2ccc(-c3ccc4ncnc(Nc5ccc(Cl)cc5)c4c3)cc2)CC1  EC50 (Leishmania major; intracellular amastigote growth, luciferase; RAW264.7 macrophages): > 15 µM
COc1c(Cl)cccc1Nc1c(-c2ccncc2C#C[C@@]2(C)CCCN2C(=O)/C=C/CN(C)C)[nH]c2c1C(=O)NCC2  IC50 (MAPK10 (Homo sapiens, UniProt P53779)): 1.5 µM
O=C1C(Cl)=C(NCCNCCO)C(=O)c2ccccc21  IC50 (SETD7; enzyme activity, inhibitor): > 50 µM
c1ccc(-c2n[nH]cc2-c2ccnc3ccccc23)nc1  IC50 (CSNK1A1; enzyme activity, inhibitor, ADP-Glo kinase; added: ATP 10 µM): 1 µM
Cc1oc(C)c(-c2ccc(N(CC(C)C)CC(C)C)c(NC(=O)Nc3ccc(B4OC(C)(C)C(C)(C)O4)cc3)c2)c1C(=O)O  IC50 (IDO1; enzyme activity, inhibitor, recombinant enzyme, measured: kynurenine; 20 min, 2% DMSO, added: L-tryptophan): 35 ± 9 µM
CCN(CC)CC(=O)Nc1cccc(-n2cc(-c3ccc4ccc(-c5cn(-c6cccc(NC(=O)CN(CC)CC)c6)nn5)cc4c3)nn2)c1  IC50 (PLK1 (Homo sapiens, UniProt P53350); enzyme activity, inhibitor): > 10 µM
O=C(O)Cc1cc2c(cc1C(=O)c1cccc(I)c1)OCO2  IC50 (Gria2/Glutamate receptor 3; ion current, patch clamp): 4.71 µM
O=C1CCCC(=O)C1C(=O)c1nc2c(Cl)cccc2n(-c2ccc(O)cc2)c1=O  IC50 (HPD (Arabidopsis thaliana, UniProt P93836); enzyme activity, inhibitor, absorbance): 0.17 µM
O=C(CNc1cccc2c1C(=O)N(C1CCC(=O)NC1=O)C2=O)NCCOCCOCCOCC(=O)N1CCC(CNC(=O)c2cccc(-c3noc(C(F)(F)F)n3)c2)(c2nc(-c3ccccc3)cs2)CC1 (stereo not drawn)  IC50 (HDAC7; enzyme activity, inhibitor): 0.35 µM
CC(=O)OC1CCC2(C)C(CCC3(C)C2CC=C2C4C(C)C(C)CCC4(C(=O)O)CCC23C)C1(C)C (stereo not drawn)  IC50 (UGT1A3 (Homo sapiens, UniProt P35503); enzyme activity, inhibitor): 11.3 µM
COC(=O)Cc1cc2c(cc1C(=O)c1ccccc1Cl)OCO2  IC50 (Gria2/Glutamate receptor 3; ion current, antagonist, patch clamp): 5.37 µM
O=C1/C(=N\c2ccccc2Br)c2ccccc2N1Cc1ccc([N+](=O)[O-])cc1  IC50 (PIK3CA (Homo sapiens, UniProt P42336); enzyme activity, inhibitor, ADP detection): 0.0153 µM
O=C(O)Cc1cc2c(cc1C(=O)c1ccccc1)OCO2  IC50 (Gria2/Glutamate receptor 3; ion current, patch clamp): 5.51 µM
O=S(=O)(c1ccc(-c2ccc3ncnc(Nc4ccc(OCc5cccc(F)c5)c(Cl)c4)c3c2)cc1)N1CCSCC1  EC50 (Leishmania major; intracellular amastigote growth, luciferase; RAW264.7 macrophages): > 15 µM
